Results from different studies.
Lines come from different studies, so protocols differ.
Technique: steady-state kinetics
B1: SULT1A1 I89A (Homo sapiens, UniProt P50225); chain MELIQDTSRPPLEYVKGVPLIKYFAEALGPLQSFQARPDDLLISTYPKSGTTWVSQILDMIYQGGDLEKCHRAPIFMRVPFLEFKAPGAPSGMETLKDTPAPRLLKTHLPLALLPQTLLDQKVKVVYVARNAKDVAVSYYHFYHMAKVHPEPGTWDSFLEKFMVGEVSYGSWYQHVQEWWELSRTHPVLYLFYEDMKENPKREIQKILEFVGRSLPEETVDFVVQHTSFKEMKKNPMTNYTTVPQEFMDHSISPFMRKGMAGDWKTTFTVAQNERFDADYAEKMAGCSLSFRSEL
B2: Nudt8 (Mus musculus, UniProt Q9CR24); chain MLPDGLSAEDEQRCRQLLARTTARLRSRPAAAAVLVPLCLVRGVPALLYTLRSSRLVGRHKGEVSFPGGKCDPDDQDVIHTALRETQEELGLEVPKEHVWGVLQPVYDREKATIVPVLANVGPLDLQSLRPNLEEVDEVFEMSLAHLLQTQNQGYTHFCQGGHFSYTLPVFLHGPHRVWGLTAVITELTLKLLAPGFYQPSLAVPELPRG
B3: enzyme A178R/D177A/P184R (Levilactobacillus brevis, UniProt Q03Q85); chain MKVTVVGCTHAGTFAIKQILAEHPDAEVTVYERNDVISFLSCGIALYLGGKVADPQGLFYSSPEELQKLGANVQMNHNVLAIDPDQKTVTVEDLTNHAQTTESYDKLVMTSGSWPIVPKIPGIDSDRVKLCKNWAHAQALIEDAKEAKRITVIGAGYIGAELAEAYSTTGHDVTLIARMARVMRKYFDADFTDVIEQDYRDHGVQLALGETVESFTDSATGLTIKTDKNSYETDLAILCIGFRPNTDLLKGKVDMAPNGAIITDDYMRSSNPDIFAAGDSAAVHYNPTHQNAYIPLATNAVRQGILVGKNLVKPTVKYMGTQSSSGLALYDRTIVSTGLTLAAAKQQGLNAEQVIVEDNYRPEFMPSTEPVLMSLVFDPDTHRILGGALMSKYDVSQSANTLSVCIQNENTIDDLAMVDMLFQPNFDRPFNYLNILAQAAQAKVAQSVNA
B4: enzyme S124T (Arabidopsis thaliana, UniProt O82390); chain MNARALLCSSNIHSLYTSNRPPEKTSSSRSLRNLKPSPKSLRVWIYPRNRSSVFRVLVRSSDKSESSNSYYVEGDKVSGNNDVVSDSPSSIVLPWWEEFPKRWVIVLLCFSAFLLCNMDRVNMTIAILPMSAEYGWNPATVGLIQSSFFWGYLLTQIAGGIWADTVGGKRVLGFGVIWWSIATILTPVAAKLGLPYLLVVRAFMGVGEGVAMPAMNNILSKWVPVQERSRSLALVYSGMYLGSVTGLAFSPFLIHQFGWPSVFYSFGSLGTVWLTLWLTKAESSPLEDPTLLPEERKLIADNCASKEPVKSIPWRLILSKPPVWALISCHFCHNWGTFILLTWMPTYYHQVLKFNLMESGLLSVFPWMTMAISANAGGWIADTLVSRGFSVTNVRKIMQTIGFLGPAFFLTQLKHIDSPTMAVLCMACSQGTDAFSQSGLYSNHQDIAPRYSGVLLGLSNTAGVLAGVLGTAATGHILQHGSWDDVFTISVGLYLVGTVIWNLFSTGEKIID
B5: Gcs (Leishmania donovani, UniProt Q67BG3); chain MGLLTTGGAPIQWGTDANRKAIPHVREHGIQQFLNVFKNKKDLHGMPFLWGEELEHQLIQIHDNTVTLSTESAMVMNKLRARPDNCAVWNPEYGSFMIESTPDHPYSLSVESLDSVQDNIERRYDMLNKEAPPGVVGTTFVTFPLMGQGNFVHCSDKSSPYSQSLFVPDACINQTHPRFANLTANIRLRRGQKVCVLVPLYMDSRTMQDTVDPQLNIDLTPHNKDIFYSMRENGRNMTDELYAETDASAALLVPSSSLDPREDYPVTETLKQLFTPATLYYYAQYFTGQRREHMQERYNACNCPVTLVSHPCIYMDCMAFGMGNSALQVTMQLDNIHEARHVYDQLAILCPAFLALSSATPFQKGLLCDTDVRWLTIAGAVDDRRVEEVPRILKSRYDSISVFISDRTENLEEFNDSQIAINRSYCELLKDSGVDVRLANHIAHLFIRDPLVMYDKMIDIDDTTHTEHFDNIQSTNWQTVRFKPPPIGNDIGWRVEFRVMDIQPTPFENAAFAVFIPLLTKAIITYKPCFYTKISIVDENMGRAHRINPCGEQYIMRKDIFADKCTASDEETARMSIDEIFNGKEGGFYGLIPLVCRYLDDEGKRSPLVNSYLKFLSMRASGRIPTPAQYMRKFVTTHPDYKHDSRLTDSIARDLVQRMHGLAANQIHDDDYLPMSFFTADTVESTK
B6: carbamoyl phosphate synthetase large subunit M174E (Escherichia coli, UniProt P00968); chain PKRTDIKSILILGAGPIVIGQACEFDYSGAQACKALREEGYRVILVNSNPATIMTDPEMADATYIEPIHWEVVRKIIEKERPDAVLPTMGGQTALNCALELERQGVLEEFGVTMIGATADAIDKAEDRRRFDVAMKKIGLETARSGIAHTMEEALAVAADVGFPCIIRPSFTEGGSGGGIAYNREEFEEICARGLDLSPTKELLIDESLIGWKEYEMEVVRDKNDNCIIVCSIENFDAMGIHTGDSITVAPAQTLTDKEYQIMRNASMAVLREIGVETGGSNVQFAVNPKNGRLIVIEMNPRVSRSSALASKATGFPIAKVAAKLAVGYTLDELMNDITGGRTPASFEPSIDYVVTKIPRFNFEKFAGANDRLTTQMKSVGEVMAIGRTQQESLQKALRGLEVGATGFDPKVSLDDPEALTKIRRELKDAGADRIWYIADAFRAGLSVDGVFNLTNIDRWFLVQIEELVRLEEKVAEVGITGLNADFLRQLKRKGFADARLAKLAGVREAEIRKLRDQYDLHPVYKRVDTCAAEFATDTAYMYSTYEEECEANPSTDREKIMVLGGGPNRIGQGIEFDYCCVHASLALREDGYETIMVNCNPETVSTDYDTSDRLYFEPVTLEDVLEIVRIEKPKGVIVQYGGQTPLKLARALEAAGVPVIGTSPDAIDRAEDRERFQHAVERLKLKQPANATVTAIEMAVEKAKEIGYPLVVRPSYVLGGRAMEIVYDEADLRRYFQTAVSVSNDAPVLLDHFLDDAVEVDVDAICDGEMVLIGGIMEHIEQAGVHSGDSACSLPAYTLSQEIQDVMRQQVQKLAFELQVRGLMNVQFAVKNNEVYLIEVNPRAARTVPFVSKATGVPLAKVAARVMAGKSLAEQGVTKEVIPPYYSVKEVVLPFNKFPGVDPLLGPEMRSTGEVMGVGRTFAEAFAKAQLGSNSTMKKHGRALLSVREGDKERVVDLAAKLLKQGFELDATHGTAIVLGEAGINPRLVNKVHEGRPHIQDRIKNGEYTYIINTTSGRRAIEDSRVIRRSALQYKVHYDTTLNGGFATAMALNADATEKVISVQEMHAQIK

Substance	substrate	pH	temperature	notes	with	Km
enzyme (Salvia miltiorrhiza, UniProt A0A4Y5RRG0)	Oc1cc(O)c2c(c1)O[C@H](c1ccc(O)c(O)c1)[C@H](O)[C@H]2c1c(O)cc(O)c2c1O[C@H](c1ccc(O)c(O)c1)[C@H](O)C2	pH 5	28 °C			18.2 µM
B1 (SULT1A1 I89A)	Oc1ccc2ccccc2c1	pH 7.2	25 °C		PAPS 0.020–0.50 µM	2.7 µM
B2 (Nudt8)	CC(C)(COP(=O)(O)OP(=O)(O)OC[C@H]1O[C@@H](n2cnc3c(N)ncnc32)[C@H](O)[C@@H]1OP(=O)(O)O)[C@@H](O)C(=O)NCCC(=O)NCCSC(=O)CC(=O)O	pH 8.5			2 mM Mn2+	233 µM
Tat (Mus musculus, UniProt Q8QZR1)	CCCCC(=O)C(=O)O	pH 7	38 °C		PLP	7300 µM
B3 (enzyme A178R/D177A/P184R)	NC(=O)C1=CN([C@@H]2O[C@H](COP(=O)(O)OP(=O)(O)OC[C@H]3O[C@@H](n4cnc5c(N)ncnc54)[C@H](O)[C@@H]3O)[C@@H](O)[C@H]2O)C=CC1	pH 7.5	37 °C			1130 µM
B4 (enzyme S124T)	O=P(O)(O)O	pH 6.5	25 °C	apparent, not purified		109 µM
BaiA2 (Clostridium scindens, UniProt P19337)	NC(=O)c1ccc[n+]([C@@H]2O[C@H](COP(=O)(O)OP(=O)(O)OC[C@H]3O[C@@H](n4cnc5c(N)ncnc54)[C@H](O)[C@@H]3O)[C@@H](O)[C@H]2O)c1	pH 8.7	37 °C	cofactor from expression host, cofactor varied		6.7 µM
B5 (Gcs)	Nc1ncnc2c1ncn2[C@@H]1O[C@H](COP(=O)(O)OP(=O)(O)OP(=O)(O)O)[C@@H](O)[C@H]1O			apparent	L-glutamate, L-cysteine, Mg2+	6250 µM
B6	Nc1ncnc2c1ncn2[C@@H]1O[C@H](COP(=O)(O)OP(=O)(O)OP(=O)(O)O)[C@@H](O)[C@H]1O	pH 7.6		KCl 100 mM	glutamine 10 mM, ornithine 10 mM	690 µM
MMP9 (Homo sapiens, UniProt P14780)	CC(=O)NCC(=O)N1CCC[C@H]1C(=O)N[C@@H](CC(C)C)C(=O)NCC(=O)N[C@@H](CC(C)C)C(=O)N[C@@H](CO)C(=O)N[C@@H](CC(C)C)C(=O)NCC(=O)N[C@@H](CCCCN)C(N)=O					940 µM
protein (Salinispora arenicola, UniProt A8M783)	I	pH 7.9	37 °C	apparent	SAM	20000 µM
dxs (Escherichia coli, UniProt P77488)	O=C(O)C(=O)CO					47 µM

Some of these lines once more:
Substance	substrate	pH	temperature	notes	with	Km
protein (Salinispora arenicola, UniProt A8M783)	I	pH 7.9	37 °C	apparent	SAM	20000 µM
